Experimental data of several laboratories.
Parts stem from different laboratories: compare values within a part only. Values joined by “and” are separate records of one study, mostly repeats; a detail may differ.
Chain of UniProt Q9NQU5 (whole entry, looked up): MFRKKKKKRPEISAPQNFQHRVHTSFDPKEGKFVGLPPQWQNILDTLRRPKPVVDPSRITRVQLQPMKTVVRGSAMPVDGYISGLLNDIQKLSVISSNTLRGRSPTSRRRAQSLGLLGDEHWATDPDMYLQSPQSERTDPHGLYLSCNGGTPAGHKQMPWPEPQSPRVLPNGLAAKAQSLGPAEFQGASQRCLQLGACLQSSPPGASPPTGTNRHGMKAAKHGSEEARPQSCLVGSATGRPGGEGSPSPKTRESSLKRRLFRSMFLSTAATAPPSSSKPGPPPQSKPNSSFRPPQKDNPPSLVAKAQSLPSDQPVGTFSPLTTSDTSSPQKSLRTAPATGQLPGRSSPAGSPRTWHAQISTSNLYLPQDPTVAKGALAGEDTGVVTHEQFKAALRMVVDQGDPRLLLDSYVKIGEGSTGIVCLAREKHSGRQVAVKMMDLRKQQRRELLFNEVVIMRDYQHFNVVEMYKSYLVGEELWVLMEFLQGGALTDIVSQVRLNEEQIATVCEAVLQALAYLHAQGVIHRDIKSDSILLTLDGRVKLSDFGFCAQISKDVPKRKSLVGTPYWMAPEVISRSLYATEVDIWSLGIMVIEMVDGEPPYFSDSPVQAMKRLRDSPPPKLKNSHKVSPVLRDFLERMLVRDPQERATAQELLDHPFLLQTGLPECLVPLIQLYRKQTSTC
Chain of UniProt P15056 (whole entry, unmodified, looked up): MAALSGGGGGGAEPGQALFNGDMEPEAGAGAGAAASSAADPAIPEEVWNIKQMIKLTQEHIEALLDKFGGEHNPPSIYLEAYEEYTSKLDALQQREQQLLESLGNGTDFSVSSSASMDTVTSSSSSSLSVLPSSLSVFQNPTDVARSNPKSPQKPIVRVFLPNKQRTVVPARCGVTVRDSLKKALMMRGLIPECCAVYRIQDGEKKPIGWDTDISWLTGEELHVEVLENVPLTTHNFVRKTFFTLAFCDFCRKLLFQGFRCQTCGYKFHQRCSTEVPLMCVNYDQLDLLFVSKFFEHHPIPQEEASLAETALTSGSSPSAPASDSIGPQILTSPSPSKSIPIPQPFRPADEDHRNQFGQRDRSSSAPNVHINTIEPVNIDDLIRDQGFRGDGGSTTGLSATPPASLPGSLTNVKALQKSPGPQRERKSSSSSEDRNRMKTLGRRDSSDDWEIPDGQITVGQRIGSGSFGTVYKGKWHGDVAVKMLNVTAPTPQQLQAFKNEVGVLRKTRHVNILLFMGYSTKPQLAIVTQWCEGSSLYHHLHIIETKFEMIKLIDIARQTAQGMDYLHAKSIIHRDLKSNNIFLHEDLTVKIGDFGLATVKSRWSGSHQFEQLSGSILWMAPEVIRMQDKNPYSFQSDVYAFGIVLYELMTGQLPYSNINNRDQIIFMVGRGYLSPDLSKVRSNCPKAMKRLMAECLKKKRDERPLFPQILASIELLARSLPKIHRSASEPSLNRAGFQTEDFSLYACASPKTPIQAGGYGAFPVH
Chain of UniProt Q9C098 (whole entry, looked up): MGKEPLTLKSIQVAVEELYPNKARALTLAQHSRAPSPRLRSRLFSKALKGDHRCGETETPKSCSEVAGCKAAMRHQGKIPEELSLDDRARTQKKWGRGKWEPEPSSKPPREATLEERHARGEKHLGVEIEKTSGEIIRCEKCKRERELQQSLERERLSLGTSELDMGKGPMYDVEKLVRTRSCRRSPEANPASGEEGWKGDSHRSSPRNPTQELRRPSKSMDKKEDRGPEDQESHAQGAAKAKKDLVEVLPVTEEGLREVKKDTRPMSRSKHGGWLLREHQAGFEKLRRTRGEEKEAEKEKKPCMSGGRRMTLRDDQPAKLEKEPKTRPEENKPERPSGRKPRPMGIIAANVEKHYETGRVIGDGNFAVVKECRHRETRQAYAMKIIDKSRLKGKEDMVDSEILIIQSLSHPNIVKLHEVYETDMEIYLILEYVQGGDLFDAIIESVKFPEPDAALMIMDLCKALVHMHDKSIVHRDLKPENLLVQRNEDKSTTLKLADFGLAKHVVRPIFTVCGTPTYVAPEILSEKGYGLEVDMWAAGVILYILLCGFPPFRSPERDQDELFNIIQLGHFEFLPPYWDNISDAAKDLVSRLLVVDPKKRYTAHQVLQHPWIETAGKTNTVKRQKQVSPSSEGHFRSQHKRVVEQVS
Chain of UniProt Q86YV6 (whole entry, looked up): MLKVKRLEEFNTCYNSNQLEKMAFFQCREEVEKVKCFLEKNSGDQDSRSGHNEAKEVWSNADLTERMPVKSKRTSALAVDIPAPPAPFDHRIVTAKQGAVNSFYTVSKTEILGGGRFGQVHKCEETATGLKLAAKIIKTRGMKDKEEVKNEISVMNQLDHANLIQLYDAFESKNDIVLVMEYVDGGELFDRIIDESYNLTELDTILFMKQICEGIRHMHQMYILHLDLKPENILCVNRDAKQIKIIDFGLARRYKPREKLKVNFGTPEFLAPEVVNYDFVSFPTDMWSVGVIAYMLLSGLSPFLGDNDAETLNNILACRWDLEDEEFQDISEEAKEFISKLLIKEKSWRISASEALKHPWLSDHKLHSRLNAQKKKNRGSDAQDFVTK

Series 1
SMILES: CC(=O)N[C@@H](Cc1c[nH]c2ccccc12)C(=O)N[C@@H](CCC(=O)C=[N+]=[N-])C(=O)OC(C)C
Species: C57BL/6 CES1-/- mice, MC-38 tumour
Dose: dose not given
Together with: anti-PD-1
Reference: initial
time | body weight
day 32 after inoculation | 98.4% and 96.8% and 93.7% and 100% and 97.4% and 92.9% and 97.3%
day 24 after inoculation | 93.5% and 97.2% and 96.5% and 99.2% and 97.4% and 96.8% and 100%
day 22 after inoculation | 100% and 97.7% and 93.5% and 94.9% and 95.9% and 95.7% and 102%
day 17 after inoculation | 100% and 97.5% and 101% and 99.3% and 99.5% and 97.3%
day 19 after inoculation | 98.7% and 99.3% and 93.9% and 98.8% and 96.3% and 95.9% and 98.2%
day 28 after inoculation | 97.3% and 96.1% and 97.6% and 95.6% and 91.8% and 92.5% and 95.4%
day 45 after inoculation | 94.6% and 94.3% and 103% and 97.9% and 91.8% and 99.5%

Series 2
Target: DNA polymerase theta, ATPase domain (POLQ, Homo sapiens, UniProt O75417)
Chain of UniProt O75417 (whole entry, unmodified, looked up): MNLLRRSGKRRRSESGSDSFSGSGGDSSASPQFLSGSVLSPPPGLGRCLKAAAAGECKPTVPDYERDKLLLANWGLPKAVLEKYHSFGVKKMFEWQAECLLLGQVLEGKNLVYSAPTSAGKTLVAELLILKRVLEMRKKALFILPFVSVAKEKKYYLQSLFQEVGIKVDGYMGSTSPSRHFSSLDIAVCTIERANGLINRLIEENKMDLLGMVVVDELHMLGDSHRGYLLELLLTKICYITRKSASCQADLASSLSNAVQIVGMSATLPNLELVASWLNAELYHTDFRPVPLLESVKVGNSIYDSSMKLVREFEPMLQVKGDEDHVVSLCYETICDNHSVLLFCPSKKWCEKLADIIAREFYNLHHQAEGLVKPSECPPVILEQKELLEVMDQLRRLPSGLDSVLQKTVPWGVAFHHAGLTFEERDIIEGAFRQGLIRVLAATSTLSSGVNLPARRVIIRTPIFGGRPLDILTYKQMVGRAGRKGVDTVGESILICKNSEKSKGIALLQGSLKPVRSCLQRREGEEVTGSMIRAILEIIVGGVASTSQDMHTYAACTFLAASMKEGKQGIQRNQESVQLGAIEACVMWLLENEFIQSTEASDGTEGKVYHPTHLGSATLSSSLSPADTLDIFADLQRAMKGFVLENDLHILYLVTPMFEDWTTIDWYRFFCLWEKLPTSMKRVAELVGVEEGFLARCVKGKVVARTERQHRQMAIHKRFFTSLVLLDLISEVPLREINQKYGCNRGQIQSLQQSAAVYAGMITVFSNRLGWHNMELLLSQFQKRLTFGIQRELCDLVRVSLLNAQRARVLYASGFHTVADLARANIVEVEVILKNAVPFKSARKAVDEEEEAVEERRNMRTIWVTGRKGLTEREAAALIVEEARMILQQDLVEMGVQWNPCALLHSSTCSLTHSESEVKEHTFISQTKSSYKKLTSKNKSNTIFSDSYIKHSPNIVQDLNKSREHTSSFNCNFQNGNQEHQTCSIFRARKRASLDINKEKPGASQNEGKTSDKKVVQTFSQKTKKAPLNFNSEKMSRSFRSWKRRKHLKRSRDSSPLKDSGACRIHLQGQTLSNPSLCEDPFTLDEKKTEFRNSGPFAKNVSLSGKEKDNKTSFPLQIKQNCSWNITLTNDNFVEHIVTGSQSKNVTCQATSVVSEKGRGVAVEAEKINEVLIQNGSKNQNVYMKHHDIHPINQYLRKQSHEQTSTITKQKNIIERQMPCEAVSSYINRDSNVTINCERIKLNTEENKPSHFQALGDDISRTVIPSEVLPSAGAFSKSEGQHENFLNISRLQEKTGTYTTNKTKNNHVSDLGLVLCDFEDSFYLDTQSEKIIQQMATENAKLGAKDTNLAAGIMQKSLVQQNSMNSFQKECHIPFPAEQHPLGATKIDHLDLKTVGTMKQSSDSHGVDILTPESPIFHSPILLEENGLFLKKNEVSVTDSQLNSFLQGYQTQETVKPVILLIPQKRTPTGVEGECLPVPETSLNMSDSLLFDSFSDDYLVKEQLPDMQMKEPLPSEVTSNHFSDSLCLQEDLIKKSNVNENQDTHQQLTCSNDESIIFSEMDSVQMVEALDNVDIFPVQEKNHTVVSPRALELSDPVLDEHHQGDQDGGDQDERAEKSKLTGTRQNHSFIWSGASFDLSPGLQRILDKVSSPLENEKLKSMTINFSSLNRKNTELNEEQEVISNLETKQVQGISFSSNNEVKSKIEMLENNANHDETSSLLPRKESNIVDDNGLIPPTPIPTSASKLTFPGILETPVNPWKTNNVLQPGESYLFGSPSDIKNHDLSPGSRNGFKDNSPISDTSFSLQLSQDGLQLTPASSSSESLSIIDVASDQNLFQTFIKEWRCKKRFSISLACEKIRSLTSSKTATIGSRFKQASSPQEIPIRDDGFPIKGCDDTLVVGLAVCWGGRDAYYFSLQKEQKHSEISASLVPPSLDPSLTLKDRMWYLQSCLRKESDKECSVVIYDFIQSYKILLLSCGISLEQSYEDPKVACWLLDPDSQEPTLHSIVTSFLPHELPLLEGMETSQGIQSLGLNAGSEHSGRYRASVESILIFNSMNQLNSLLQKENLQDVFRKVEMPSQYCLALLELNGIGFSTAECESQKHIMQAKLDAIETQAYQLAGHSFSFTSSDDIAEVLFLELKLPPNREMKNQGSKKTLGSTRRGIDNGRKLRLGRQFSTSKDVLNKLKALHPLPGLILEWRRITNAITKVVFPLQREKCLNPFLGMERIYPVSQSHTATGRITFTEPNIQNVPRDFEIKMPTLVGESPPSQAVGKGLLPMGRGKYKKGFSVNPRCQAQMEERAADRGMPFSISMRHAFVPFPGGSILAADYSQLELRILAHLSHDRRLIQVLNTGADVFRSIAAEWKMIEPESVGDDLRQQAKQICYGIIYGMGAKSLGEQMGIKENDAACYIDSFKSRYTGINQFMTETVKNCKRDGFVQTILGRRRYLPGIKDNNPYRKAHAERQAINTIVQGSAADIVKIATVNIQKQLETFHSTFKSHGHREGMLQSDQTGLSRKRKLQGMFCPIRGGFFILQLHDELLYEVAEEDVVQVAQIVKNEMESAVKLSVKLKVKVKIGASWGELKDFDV
Read-out: enzyme activity
Mode: inhibitor
Concentration: 77 µM
Reference: untreated
SMILES | remaining activity
NC1=N[C@@]2(c3cc(NC(=O)c4ccc(F)cn4)ccc3F)COC[C@H]2CS1 | 95.6%
CC(C(=O)O)c1ccc2c(c1)CC(=O)c1ccccc1S2 (stereo not shown) | 91.3%
C[C@]12C=CC(=O)C=C1CC[C@@H]1[C@@H]2[C@@H](O)C[C@@]2(C)[C@H]1CC[C@]2(O)C(=O)CO | 99.6% and 75.5%
C[C@@H]1C[C@H]2[C@@H]3CCC4=CC(=O)C=C[C@]4(C)[C@@]3(F)[C@@H](O)C[C@]2(C)[C@@]1(O)C(=O)CO | 101%
Cc1c(C)c2c(c(C)c1O)CC[C@@](C)(CCC[C@H](C)CCC[C@H](C)CCCC(C)C)O2 | 101%
CCn1c(=O)[nH]c2cc(Cl)c(Cl)cc21 | 105%
COc1cc(Nc2ncc3c(n2)-c2ccc(Cl)cc2C(c2c(F)cccc2OC)=NC3)ccc1C(=O)O | 97.3%
Cn1ccnc1 | 96.4%
N[C@H](C(=O)O)c1cc(O)cc(O)c1 | 107%
CN(C)CCCCC(=O)Nc1ccc(NC(=S)NC(=O)c2ccc(C(C)(C)C)cc2)cc1 | 103%
O=C(CCCCC(=O)Nc1c(I)cc(I)c(C(=O)O)c1I)Nc1c(I)cc(I)c(C(=O)O)c1I | 99.1%

Series 3
Target: Lymphokine-activated killer T-cell-originated protein kinase (PBK, Homo sapiens, UniProt Q96KB5)
Read-out: enzyme activity
Mode: inhibitor
Concentration: 0.5 µM
Reference: control
Construct (Q96KB5 1-322): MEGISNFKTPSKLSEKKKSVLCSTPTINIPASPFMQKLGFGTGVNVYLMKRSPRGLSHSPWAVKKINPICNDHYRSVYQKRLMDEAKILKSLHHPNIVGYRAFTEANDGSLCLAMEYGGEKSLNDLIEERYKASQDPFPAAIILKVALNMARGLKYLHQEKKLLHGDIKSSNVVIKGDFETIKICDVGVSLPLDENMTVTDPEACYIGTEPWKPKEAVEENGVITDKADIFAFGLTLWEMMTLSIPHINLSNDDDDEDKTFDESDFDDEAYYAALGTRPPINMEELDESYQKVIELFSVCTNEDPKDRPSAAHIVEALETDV
SMILES | remaining activity
O=Nc1c(-c2c(O)[nH]c3cc(Br)ccc23)[nH]c2ccccc12 | 109%
O=C1Nc2ccccc2/C1=C\c1c(Cl)[nH]c2ccccc12 | 102%
CCCCc1c(-c2ccc(OC)cc2)[nH]c2nccnc12 | 80.6%
O=C1Nc2ccc(Br)cc2/C1=C/c1cc2c([nH]1)CCCC2 | 87.8%
COc1ccc(COc2ccc(Cc3cnc(N)nc3N)cc2OC)cc1 | 99.4%
O=C1NC(=O)c2c1c1c3ccccc3[nH]c1c1[nH]c3cc(Br)ccc3c21 | 86.3%
Oc1cccc(-c2nc(N3CCOCC3)c3oc4ncccc4c3n2)c1 | 88.7%
COc1ccc2c(c1)c(C1=C(c3c[nH]c4ccccc34)C(=O)NC1=O)cn2CCCN(C)C | 96.8%
O=c1cc(N2CCOCC2)oc2c(-c3ccccc3)cccc12 | 110%
CN(C)S(=O)(=O)c1ccc2c(c1)/C(=C/c1cc3c([nH]1)CCCC3)C(=O)N2 | 99.7%
CN1CCN(c2ccc3nc(-c4c(N)c5c(F)cccc5[nH]c4=O)[nH]c3c2)CC1 | 101%
c1ccc2c(-c3ccncc3)c[nH]c2c1 | 97.1%
Cc1ccc(S(=O)(=O)/C=C/C#N)cc1 | 83.2%
O=C1Cc2c([nH]c3ccc(Br)cc23)-c2ccccc2N1 | 99.3%
CCCNC(=O)Nc1ccc(Oc2ncnc3cc(OC)c(OC)cc23)cc1Cl | 66.2%
O=C(c1cc2cc(O)ccc2[nH]1)c1cc2cc(O)ccc2[nH]1 | 100%
COc1cccc(-c2cc(=O)c3ccccc3o2)c1N | 97.6%
c1ccc(-c2n[nH]c3c2oc2ccccc23)cc1 | 94.8%
O=C1NC(=O)c2c1c1c3ccccc3[nH]c1n1cncc21 | 72.4%
N#Cc1cnc2cnc(NCc3cccnc3)cc2c1Nc1ccc(F)c(Cl)c1 | 84.8%
Cc1cc(Nc2cc(N3CCN(C)CC3)nc(Sc3ccc(NC(=O)C4CC4)cc3)n2)[nH]n1 | 107%

Series 4
Compound: CO[C@@H](C)c1c(Nc2ccc([C@H](N(C)C(=O)C3CCS(=O)(=O)CC3)C(F)(F)F)cc2)cnc2cc(Cl)nn12
Technique: competition with immobilised ligand
Concentration: 1 µM
target | read-out | remaining binding [%]
DCLK3 (Homo sapiens, UniProt Q9C098) | cell-free assay | 100
PRKD2 (Homo sapiens, UniProt Q9BZL6) | cell-free assay | 83
ERBB3 (Homo sapiens, UniProt P21860) | cell-free assay | 100
LRRK2 (Homo sapiens, UniProt Q5S007, G2019S) | cell-free assay | 100
eIF-2-alpha kinase GCN2, C-terminal kinase domain (EIF2AK4, Homo sapiens, UniProt Q9P2K8, S808G) | cell-free assay | 78
HUNK (Homo sapiens, UniProt P57058) | cell-free assay | 100
Tyrosine-protein kinase ABL1, non-phosphorylated (ABL1, Homo sapiens, UniProt P00519, F317L) | cell-free assay | 100
EPHA4 (Homo sapiens, UniProt P54764) | cell-free assay | 83
PIK3C2B (Homo sapiens, UniProt O00750) | cell-free assay | 97
TSSK3 (Homo sapiens, UniProt Q96PN8) | cell-free assay | 81
BMPR1A (Homo sapiens, UniProt P36894) | binding | 71
RIPK1 (Homo sapiens, UniProt Q13546) | cell-free assay | 91
MAP2K1 (Homo sapiens, UniProt Q02750) | cell-free assay | 100
PI4KB (Homo sapiens, UniProt Q9UBF8) | cell-free assay | 82
BRSK2 (Homo sapiens, UniProt Q8IWQ3) | cell-free assay | 79
ROCK2 (Homo sapiens, UniProt O75116) | cell-free assay | 100
MST1R (Homo sapiens, UniProt Q04912) | cell-free assay | 100
PIK3CB (Homo sapiens, UniProt P42338) | cell-free assay | 65
MYLK4 (Homo sapiens, UniProt Q86YV6) | cell-free assay | 86
BRAF (Homo sapiens, UniProt P15056, V600E) | cell-free assay | 96
PAK6 (Homo sapiens, UniProt Q9NQU5) | cell-free assay | 100
EGFR (Homo sapiens, UniProt P00533, del747-752/P753S) | cell-free assay | 100

For quick reference, copied from above (series 4):
target | read-out | remaining binding [%]
ERBB3 (Homo sapiens, UniProt P21860) | cell-free assay | 100
RIPK1 (Homo sapiens, UniProt Q13546) | cell-free assay | 91
Tyrosine-protein kinase ABL1, non-phosphorylated (ABL1, Homo sapiens, UniProt P00519, F317L) | cell-free assay | 100
TSSK3 (Homo sapiens, UniProt Q96PN8) | cell-free assay | 81
PAK6 (Homo sapiens, UniProt Q9NQU5) | cell-free assay | 100
eIF-2-alpha kinase GCN2, C-terminal kinase domain (EIF2AK4, Homo sapiens, UniProt Q9P2K8, S808G) | cell-free assay | 78
BRSK2 (Homo sapiens, UniProt Q8IWQ3) | cell-free assay | 79
EPHA4 (Homo sapiens, UniProt P54764) | cell-free assay | 83
